Experimental data of several laboratories.
Each numbered part is a random draw from the data of one study; scales do not carry over between parts. Values joined by “and” are separate records of one study, mostly repeats; a detail may differ.
UniProt Q00537, sequence (whole entry, looked up): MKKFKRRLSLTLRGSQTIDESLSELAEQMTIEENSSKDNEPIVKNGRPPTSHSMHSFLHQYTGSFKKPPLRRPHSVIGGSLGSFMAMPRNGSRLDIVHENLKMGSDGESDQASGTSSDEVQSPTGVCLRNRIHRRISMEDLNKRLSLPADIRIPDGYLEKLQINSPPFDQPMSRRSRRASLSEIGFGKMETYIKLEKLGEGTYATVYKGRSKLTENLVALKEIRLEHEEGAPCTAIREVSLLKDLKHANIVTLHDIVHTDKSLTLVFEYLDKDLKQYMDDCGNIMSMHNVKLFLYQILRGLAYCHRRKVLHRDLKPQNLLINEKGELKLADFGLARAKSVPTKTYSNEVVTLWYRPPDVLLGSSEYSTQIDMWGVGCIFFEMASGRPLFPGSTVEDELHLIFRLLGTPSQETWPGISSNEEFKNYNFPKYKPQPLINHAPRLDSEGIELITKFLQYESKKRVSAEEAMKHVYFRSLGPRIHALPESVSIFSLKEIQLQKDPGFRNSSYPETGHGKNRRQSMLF
UniProt Q9NSY1, sequence (whole entry, looked up): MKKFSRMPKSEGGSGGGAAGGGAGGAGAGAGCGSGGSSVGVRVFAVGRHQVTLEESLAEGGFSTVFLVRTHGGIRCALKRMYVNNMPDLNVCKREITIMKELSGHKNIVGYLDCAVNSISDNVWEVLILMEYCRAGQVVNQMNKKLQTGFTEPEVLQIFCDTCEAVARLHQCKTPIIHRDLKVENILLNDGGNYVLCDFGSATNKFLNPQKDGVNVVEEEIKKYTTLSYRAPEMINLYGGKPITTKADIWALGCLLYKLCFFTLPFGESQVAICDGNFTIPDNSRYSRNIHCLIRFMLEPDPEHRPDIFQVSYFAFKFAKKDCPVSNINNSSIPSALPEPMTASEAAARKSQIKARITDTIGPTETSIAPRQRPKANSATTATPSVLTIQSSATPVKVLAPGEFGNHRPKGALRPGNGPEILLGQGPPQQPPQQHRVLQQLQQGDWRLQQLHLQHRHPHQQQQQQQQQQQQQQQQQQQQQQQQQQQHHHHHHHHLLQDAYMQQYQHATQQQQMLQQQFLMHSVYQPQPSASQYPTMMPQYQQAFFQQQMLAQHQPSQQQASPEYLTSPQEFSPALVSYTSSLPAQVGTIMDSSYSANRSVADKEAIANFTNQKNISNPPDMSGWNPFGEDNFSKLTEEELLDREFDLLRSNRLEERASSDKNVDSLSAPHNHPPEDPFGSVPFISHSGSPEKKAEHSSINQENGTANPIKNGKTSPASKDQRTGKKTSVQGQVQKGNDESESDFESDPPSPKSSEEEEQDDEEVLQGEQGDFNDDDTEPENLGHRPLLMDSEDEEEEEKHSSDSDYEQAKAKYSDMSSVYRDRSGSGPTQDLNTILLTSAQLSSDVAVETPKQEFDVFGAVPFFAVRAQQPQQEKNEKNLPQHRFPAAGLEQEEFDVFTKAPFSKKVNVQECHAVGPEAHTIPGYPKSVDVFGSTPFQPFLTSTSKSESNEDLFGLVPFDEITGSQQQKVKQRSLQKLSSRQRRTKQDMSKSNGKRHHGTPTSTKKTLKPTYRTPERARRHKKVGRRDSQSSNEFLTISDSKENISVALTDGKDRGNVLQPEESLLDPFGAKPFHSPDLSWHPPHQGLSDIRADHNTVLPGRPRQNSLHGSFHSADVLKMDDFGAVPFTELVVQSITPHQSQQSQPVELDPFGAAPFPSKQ
UniProt Q9H2K8, sequence (whole entry, looked up): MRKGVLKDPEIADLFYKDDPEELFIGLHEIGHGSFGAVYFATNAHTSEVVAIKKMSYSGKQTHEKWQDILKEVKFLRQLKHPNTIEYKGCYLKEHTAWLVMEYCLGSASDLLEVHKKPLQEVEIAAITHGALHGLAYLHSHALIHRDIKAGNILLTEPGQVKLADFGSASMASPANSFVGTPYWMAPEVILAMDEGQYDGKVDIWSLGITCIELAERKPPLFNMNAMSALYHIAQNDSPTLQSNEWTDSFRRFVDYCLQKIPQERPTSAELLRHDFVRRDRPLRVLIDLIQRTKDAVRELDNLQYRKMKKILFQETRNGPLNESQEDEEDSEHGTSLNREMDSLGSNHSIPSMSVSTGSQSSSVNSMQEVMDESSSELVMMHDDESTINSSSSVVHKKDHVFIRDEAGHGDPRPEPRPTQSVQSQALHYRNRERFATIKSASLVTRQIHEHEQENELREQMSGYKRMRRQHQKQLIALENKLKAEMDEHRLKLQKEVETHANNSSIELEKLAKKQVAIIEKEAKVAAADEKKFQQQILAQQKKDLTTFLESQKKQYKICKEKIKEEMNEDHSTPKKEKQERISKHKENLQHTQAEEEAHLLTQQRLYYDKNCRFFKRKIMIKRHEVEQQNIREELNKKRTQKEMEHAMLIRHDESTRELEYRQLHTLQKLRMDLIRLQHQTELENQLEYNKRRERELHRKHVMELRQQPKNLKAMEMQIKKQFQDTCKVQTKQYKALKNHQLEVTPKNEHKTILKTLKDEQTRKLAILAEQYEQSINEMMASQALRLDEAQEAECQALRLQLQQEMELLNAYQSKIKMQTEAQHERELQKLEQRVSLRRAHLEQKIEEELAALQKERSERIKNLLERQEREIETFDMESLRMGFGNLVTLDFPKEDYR
UniProt Q9UK32, sequence (whole entry, looked up): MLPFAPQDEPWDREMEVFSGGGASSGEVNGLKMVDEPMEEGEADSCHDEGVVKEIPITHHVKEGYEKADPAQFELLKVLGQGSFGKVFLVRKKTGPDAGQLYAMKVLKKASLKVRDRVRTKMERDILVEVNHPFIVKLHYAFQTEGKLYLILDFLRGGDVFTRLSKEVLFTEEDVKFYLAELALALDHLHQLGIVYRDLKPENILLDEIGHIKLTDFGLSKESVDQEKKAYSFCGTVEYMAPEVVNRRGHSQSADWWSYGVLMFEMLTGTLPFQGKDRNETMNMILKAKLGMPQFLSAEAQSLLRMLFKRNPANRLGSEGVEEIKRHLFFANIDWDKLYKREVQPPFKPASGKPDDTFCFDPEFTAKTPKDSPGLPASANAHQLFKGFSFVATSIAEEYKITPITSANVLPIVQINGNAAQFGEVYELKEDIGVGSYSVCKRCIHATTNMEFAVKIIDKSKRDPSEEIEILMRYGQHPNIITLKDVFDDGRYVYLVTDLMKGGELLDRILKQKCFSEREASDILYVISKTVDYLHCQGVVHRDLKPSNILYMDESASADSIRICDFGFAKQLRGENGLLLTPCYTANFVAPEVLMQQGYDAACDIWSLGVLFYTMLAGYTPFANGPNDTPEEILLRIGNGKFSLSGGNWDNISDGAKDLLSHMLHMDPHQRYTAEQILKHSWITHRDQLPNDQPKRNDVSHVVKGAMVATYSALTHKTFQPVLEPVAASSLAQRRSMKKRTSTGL
UniProt P51956, sequence (whole entry, looked up): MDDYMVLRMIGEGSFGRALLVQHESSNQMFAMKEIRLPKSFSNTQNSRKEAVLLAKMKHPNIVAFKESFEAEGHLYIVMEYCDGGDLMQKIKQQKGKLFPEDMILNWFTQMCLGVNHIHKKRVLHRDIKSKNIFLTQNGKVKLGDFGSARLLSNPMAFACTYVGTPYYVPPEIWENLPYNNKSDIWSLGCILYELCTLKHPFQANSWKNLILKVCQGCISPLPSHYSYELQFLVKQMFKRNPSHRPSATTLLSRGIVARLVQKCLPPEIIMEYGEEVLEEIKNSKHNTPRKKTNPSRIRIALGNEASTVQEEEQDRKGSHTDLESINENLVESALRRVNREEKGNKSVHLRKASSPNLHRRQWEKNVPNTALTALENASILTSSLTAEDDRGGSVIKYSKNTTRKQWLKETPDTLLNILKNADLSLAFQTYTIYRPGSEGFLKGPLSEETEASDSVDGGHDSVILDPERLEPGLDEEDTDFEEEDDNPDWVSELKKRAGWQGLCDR

Series 1 — effect on: enzyme activity; action: inhibitor; concentration: 0.5 µM; relative to: control
Target: Mitogen-activated protein kinase kinase kinase 9 (MAP3K9, Homo sapiens, UniProt P80192)
UniProt P80192, sequence (whole entry, looked up): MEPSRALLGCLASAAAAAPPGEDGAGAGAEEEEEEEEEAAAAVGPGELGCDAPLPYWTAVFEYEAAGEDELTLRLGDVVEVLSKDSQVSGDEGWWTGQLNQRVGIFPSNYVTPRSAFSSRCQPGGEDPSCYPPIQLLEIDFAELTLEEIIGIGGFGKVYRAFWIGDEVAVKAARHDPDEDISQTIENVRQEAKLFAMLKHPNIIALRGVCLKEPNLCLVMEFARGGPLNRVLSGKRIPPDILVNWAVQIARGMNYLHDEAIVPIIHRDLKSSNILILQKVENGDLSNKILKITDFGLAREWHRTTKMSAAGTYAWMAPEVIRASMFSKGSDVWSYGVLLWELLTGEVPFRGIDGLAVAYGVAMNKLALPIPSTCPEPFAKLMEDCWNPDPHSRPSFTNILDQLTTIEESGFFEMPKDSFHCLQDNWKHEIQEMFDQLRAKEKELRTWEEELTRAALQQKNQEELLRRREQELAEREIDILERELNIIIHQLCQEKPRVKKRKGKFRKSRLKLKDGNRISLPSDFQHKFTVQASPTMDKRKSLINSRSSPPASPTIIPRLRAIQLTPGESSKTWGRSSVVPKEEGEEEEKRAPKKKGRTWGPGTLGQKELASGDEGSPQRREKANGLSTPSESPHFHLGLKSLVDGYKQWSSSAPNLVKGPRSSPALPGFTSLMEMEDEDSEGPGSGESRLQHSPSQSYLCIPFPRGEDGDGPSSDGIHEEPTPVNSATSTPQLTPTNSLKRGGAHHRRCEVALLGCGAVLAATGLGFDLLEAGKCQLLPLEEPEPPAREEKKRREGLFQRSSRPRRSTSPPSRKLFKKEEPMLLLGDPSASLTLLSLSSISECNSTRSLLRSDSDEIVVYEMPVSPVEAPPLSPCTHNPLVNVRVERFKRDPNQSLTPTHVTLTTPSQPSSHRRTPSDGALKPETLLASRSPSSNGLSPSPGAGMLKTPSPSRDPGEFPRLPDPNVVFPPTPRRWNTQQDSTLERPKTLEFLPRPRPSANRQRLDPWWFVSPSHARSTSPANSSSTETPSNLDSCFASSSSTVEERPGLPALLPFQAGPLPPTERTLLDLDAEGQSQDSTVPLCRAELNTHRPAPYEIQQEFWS
With `O=C1NC(=O)C(c2cn(CCCO)c3ncccc23)=C1c1cnccn1` the remaining activity was 85.5%.
For `COc1ccc(OC)c2c(=S)c3ccccc3[nH]c12`, the remaining activity was 102%.
`O=c1c2ccccc2[nH]c(=S)n1CCN1CCC(=C(c2ccc(F)cc2)c2ccc(F)cc2)CC1` has a remaining activity of 111%.
For `COc1ccc(CNC(=O)Nc2ncc([N+](=O)[O-])s2)cc1`, the remaining activity was 101%.
`Cc1ccc(NC(=O)c2ccc(CN3CCN(C)CC3)cc2)cc1Nc1nc(-c2cccnc2)cs1` has a remaining activity of 104%.
The remaining activity of `COc1cc2nccc(Oc3ccc(NC(=S)NC(=O)c4ccccc4C)cc3)c2cc1OC` is reported as 99.3%.
For `CCOC(=O)c1c(C)[nH]c(/C=C2\C(=O)Nc3ccccc32)c1C`, the remaining activity was 61.6%.
For `NCCNc1ncc(C(N)=O)c(Nc2cccc(C(F)(F)F)c2)n1`, the remaining activity was 44.7%.
With `O=C(CCCc1ccc(-c2ccccc2F)cc1)Nc1ccc(O)cc1` the remaining activity was 100%.
`Cc1ccc(Nc2nccc(N(C)c3ccc4c(C)n(C)nc4c3)n2)cc1S(N)(=O)=O` gave a remaining activity of 10.6%.
For `CO[C@H]1C[C@@H]2CC[C@@H](C)[C@@](O)(O2)C(=O)C(=O)N2CCCC[C@H]2C(=O)O[C@H]([C@H](C)C[C@@H]2CC[C@@H](O)[C@H](OC)C2)CC(=O)[C@H](C)/C=C(\C)[C@@H](O)[C@@H](OC)C(=O)[C@H](C)C[C@H](C)/C=C/C=C/C=C/1C`, the remaining activity was 87.3%.
`Nc1[nH]nc2nc3ccccc3nc12` gave a remaining activity of 97.7%.
With `O=S(=O)(c1cccc2cnccc12)N1CCCNCC1` the remaining activity was 94.4%.
With `COc1cc2ncnc(Nc3ccc(F)c(Cl)c3)c2cc1OCCCN1CCOCC1` the remaining activity was 110%.
`OCC(O)CCON=C1C(c2c(O)[nH]c3ccccc23)=Nc2ccccc21` (stereo not shown) has a remaining activity of 7.06%.

Series 2 — cell line: mouse MPNST tumor cells; method: high-content nuclear imaging; refers to: cell number; concentration: 10 µM; time: 12 h; notes: mean of 2 replicates; relative to: plate mean; direction: higher = more cells
`C#CCN(C)Cc1ccccc1` has a nuclei count of 1.66 z-score and -1.74 z-score.
`CC(=O)Oc1ccccc1C(=O)Oc1ccccc1C(=O)O` gave a nuclei count of 1.07 z-score.
With `CN(Cc1cnc2nc(N)nc(N)c2n1)c1ccc(C(=O)N[C@@H](CCC(=O)O)C(=O)O)cc1` (racemic) the nuclei count was -1.36 z-score.
With `CCN(CC)CCCCN1c2ccccc2Oc2ccc(Cl)cc21` the nuclei count was -4.8 z-score.
The nuclei count of `C[C@H](CCC(=O)O)[C@H]1CC[C@H]2[C@@H]3CC[C@@H]4C[C@H](O)CC[C@]4(C)[C@H]3CC[C@]12C` is reported as 0.13 z-score.

Series 3 — effect on: cell-free assay; method: competition with immobilised ligand; concentration: 1 µM
SMILES: O=C(NC[C@@H]1[C@H]2CN(C(=O)OCc3cc(C(F)(F)F)cc(C(F)(F)F)c3)C[C@@H]12)c1ccc2[nH]nnc2c1
Serine/threonine-protein kinase WNK3 (WNK3, Homo sapiens, UniProt Q9BYP7) — remaining binding: 100%.
It gave 97% for remaining binding (Serine/threonine-protein kinase SBK1 (SBK1, Homo sapiens, UniProt Q52WX2)).
The remaining binding was 86% (Ribosomal protein S6 kinase alpha-6, C-terminal kinase domain (RPS6KA6, Homo sapiens, UniProt Q9UK32)).
BMP-2-inducible protein kinase (BMP2K, Homo sapiens, UniProt Q9NSY1) — remaining binding: 85%.
Mitogen-activated protein kinase kinase kinase 4 (MAP3K4, Homo sapiens, UniProt Q9Y6R4) — remaining binding: 91%.
For Mitogen-activated protein kinase kinase kinase 19 (MAP3K19, Homo sapiens, UniProt Q56UN5): remaining binding read 100%.
The remaining binding was 88% (Serine/threonine-protein kinase TAO3 (TAOK3, Homo sapiens, UniProt Q9H2K8)).
For Serine/threonine-protein kinase Nek3 (NEK3, Homo sapiens, UniProt P51956): remaining binding read 100%.
For Serine/threonine-protein kinase 36 (STK36, Homo sapiens, UniProt Q9NRP7): remaining binding read 100%.
For Cyclin-dependent kinase 17 (CDK17, Homo sapiens, UniProt Q00537): remaining binding read 100%.

Series 4 — organism: Sarcocystis neurona; effect on: parasite growth; concentration: 10 µM; time: 96 h; notes: secondary screen
For `OCCN1C[C@H](O)[C@@H](O)[C@H](O)[C@H]1CO`, the inhibition was 0.5%.
With `CC1(C)O[C@@H]2C[C@H]3[C@@H]4C[C@H](F)C5=CC(=O)C=C[C@]5(C)[C@@]4(F)[C@@H](O)C[C@]3(C)[C@]2(C(=O)CO)O1` the inhibition was -28.8%.
For `CC(=O)NCCCCCCNC(C)=O`, the inhibition was -18.7%.
With `CCn1cc(C(=O)O)c(=O)c2cc(F)c(N3CCN(C)CC3)cc21` the inhibition was 0.5%.
`CC[C@H]1OC(=O)[C@H](C)[C@@H](O[C@H]2C[C@@](C)(OC)[C@@H](O)[C@H](C)O2)[C@H](C)[C@@H](O[C@@H]2O[C@H](C)C[C@H](N(C)C)[C@H]2O)[C@](C)(OC)C[C@@H](C)C(=O)[C@H](C)[C@@H](O)[C@]1(C)O` gave an inhibition of -2.1%.
The inhibition of `COc1cc2nc(N(C)CCCNC(=O)C3CCCO3)nc(N)c2cc1OC` (stereo not shown) is reported as -31.2%.
`CC1(C)S[C@@H]2[C@H](NC(=O)COc3ccccc3)C(=O)N2[C@H]1C(=O)O` has an inhibition of -10.8%.

Repeated from above (series 2):
With `CCN(CC)CCCCN1c2ccccc2Oc2ccc(Cl)cc21` the nuclei count was -4.8 z-score.
`CC(=O)Oc1ccccc1C(=O)Oc1ccccc1C(=O)O` gave a nuclei count of 1.07 z-score.
The nuclei count of `C[C@H](CCC(=O)O)[C@H]1CC[C@H]2[C@@H]3CC[C@@H]4C[C@H](O)CC[C@]4(C)[C@H]3CC[C@]12C` is reported as 0.13 z-score.
